Experimental data gathered from unrelated publications.
Lines come from different studies, so protocols differ. Several values in a cell are separate wells, animals, samples, runs or records. Numbers after ± are the reported error.

For CCCC[C@H](NC(=O)COCCOCCNC(=O)CN1CCN(CC(=O)O)CCN(CC(=O)O)CC1)C(=O)N[C@H]1CC(=O)NCCCC[C@@H](C(N)=O)NC(=O)[C@H](Cc2c[nH]c3ccccc23)NC(=O)[C@H](CCCNC(=N)N)NC(=O)[C@@H](Cc2ccccc2)NC(=O)[C@H](Cc2c[nH]cn2)NC1=O [copper-64 labelled], the tissue uptake was 0.62 ± 0.18 %ID/g (C57 mice, lung; intravenous, 0.37 MBq, 4 h).
CSCC[C@H](NC(=O)[C@H](CC(C)C)NC(=O)[C@H](Cc1c[nH]cn1)NC(=O)CNC(=O)[C@@H](NC(=O)[C@H](C)NC(=O)[C@H](Cc1c[nH]c2ccccc12)NC(=O)[C@H](CCC(N)=O)NC(=O)CCOCCOCCOCCOCCNC(=O)CN1CCN(CC(=O)O)CCN(CC(=O)O)CCN(CC(=O)O)CC1)C(C)C)C(N)=O [indium-111 labelled] has an intact peptide of 22.4% and 24.4% (radio-HPLC; Swiss nu/nu mice, blood; intravenous, 1 nmol, 5 min).
For N=C(N)NCCC[C@@H]1NC(=O)[C@H](CCCCNC(=O)CN2CCN(CC(=O)O)CCN(CC(=O)O)CCN(CC(=O)O)CC2)NC(=O)[C@@H](Cc2ccccc2)NC(=O)[C@H](CC(=O)O)NC(=O)CNC1=O, “tumour to muscle ratio” read 6.1 (female athymic nude Nu/Nu mice, U-87 MG xenograft; intravenous, 10 µCi, 4 h; relative to: tumour over muscle).
For CC(C)C[C@H](NC(=O)C[C@H](O)[C@H](CC(C)C)NC(=O)[C@H](Cc1c[nH]cn1)NC(=O)CNC(=O)[C@@H](NC(=O)[C@H](C)NC(=O)[C@H](Cc1c[nH]c2ccccc12)NC(=O)[C@H](CCC(N)=O)NC(=O)[C@@H](Cc1ccccc1)NC(=O)CCOCCOCCOCCNC(=O)CN1CCN(CC(=O)O)CCN(CC(=O)O)CC1)C(C)C)C(N)=O [gallium-68 labelled], “mean tumour uptake” read 2.96 ± 0.45 %ID/g (microPET imaging; nude mouse PC-3 xenograft, PC-3 tumour; intravenous, 3.7 MBq, 30 min).
N=C(N)NCCC[C@@H]1NC(=O)[C@H](CCCCNC(=O)CNC(=O)CNC(=O)CNC(=O)CC[C@H](NC(=O)CNC(=O)CNC(=O)CNC(=O)CC[C@H](NC(=O)CN2CCN(CC(=O)O)CCN(CC(=O)O)CCN(CC(=O)O)CC2)C(=O)NCC(=O)NCC(=O)NCC(=O)N[C@@H](CCC(=O)NCC(=O)NCC(=O)NCC(=O)NCCCC[C@@H]2NC(=O)[C@@H](Cc3ccccc3)NC(=O)[C@H](CC(=O)O)NC(=O)CNC(=O)[C@H](CCCNC(=N)N)NC2=O)C(=O)NCC(=O)NCC(=O)NCC(=O)NCCCC[C@@H]2NC(=O)[C@@H](Cc3ccccc3)NC(=O)[C@H](CC(=O)O)NC(=O)CNC(=O)[C@H](CCCNC(=N)N)NC2=O)C(=O)NCC(=O)NCC(=O)NCC(=O)NCCCC[C@@H]2NC(=O)[C@@H](Cc3ccccc3)NC(=O)[C@H](CC(=O)O)NC(=O)CNC(=O)[C@H](CCCNC(=N)N)NC2=O)NC(=O)[C@@H](Cc2ccccc2)NC(=O)[C@H](CC(=O)O)NC(=O)CNC1=O [indium-111 labelled] gave a tissue uptake of 0.14 ± 0.03 %ID/g (female athymic nu/nu mice, brain; intravenous, 1 h).
CCCC[C@H](NC(=O)CCCCCCCNC(=O)CN1CCN(CC(=O)O)CCN(CC(=O)O)CC1)C(=O)N[C@H]1CC(=O)NCCCC[C@@H](C(N)=O)NC(=O)[C@H](Cc2c[nH]c3ccccc23)NC(=O)[C@H](CCCNC(=N)N)NC(=O)[C@@H](Cc2ccccc2)NC(=O)[C@H](Cc2c[nH]cn2)NC1=O [copper-64 labelled] gave a tissue uptake of 0.75 ± 0.19 %ID/g (C57 mice, pancreas; intravenous, 0.37 MBq, 0.5 h).
With N=C(N)NCCC[C@@H]1NC(=O)[C@H](CCCCNC(=O)CNC(=O)CNC(=O)CNC(=O)CC[C@H](NC(=O)CNC(=O)CNC(=O)CNC(=O)CN2CCN(CC(=O)O)CCN(CC(=O)O)CCN(CC(=O)O)CC2)C(=O)NCC(=O)NCC(=O)NCC(=O)NCCCC[C@@H]2NC(=O)[C@@H](Cc3ccccc3)NC(=O)[C@H](CC(=O)O)NC(=O)CNC(=O)[C@H](CCCNC(=N)N)NC2=O)NC(=O)[C@@H](Cc2ccccc2)NC(=O)[C@H](CC(=O)O)NC(=O)CNC1=O [indium-111 labelled] the tissue uptake was 2.69 ± 0.1 %ID/g (female athymic nu/nu mice, kidney; intravenous, 4 h).
The tissue uptake of CC(C)C[C@H](NC(=O)CN1CCN(CC(=O)O)CCN(CC(=O)O)CC1)C(=O)N[C@@H](CC(C)C)C(=O)N[C@@H](CC(C)C)C(=O)N[C@@H](CC(C)C)C(=O)N[C@@H](CCCNC(=N)N)C(=O)N[C@H](C(=O)N[C@@H](CCCCN)C(=O)N[C@@H](CCCNC(=N)N)C(N)=O)C(C)C [copper-64 labelled] is reported as 1.9 ± 0.2 %ID/g (CD1 mouse, male, pancreas; intravenous, 15 min, blocked, unlabelled peptide 0.1 µmol).
N=C(N)NCCC[C@@H]1NC(=O)[C@H](CCCCNC(=S)Nc2ccc(CC3CN(CC(=O)O)CCN(CC(=O)O)CCN(CC(=O)O)CCN3CC(=O)O)cc2)NC(=O)[C@@H](Cc2ccc(O)cc2)NC(=O)[C@H](CC(=O)O)NC(=O)CNC1=O (stereo partly drawn) [actinium-225 labelled]: “tumour to muscle ratio” 5.7 (U-87 MG tumour-bearing mice; 4 h).
N=C(N)NCCC[C@@H]1NC(=O)[C@H](CCCCNC(=O)CC[C@H](NC(=O)CC[C@H](NC(=O)CN2CCN(CC(=O)O)CCN(CC(=O)O)CCN(CC(=O)O)CC2)C(=O)N[C@@H](CCC(=O)NCCCC[C@@H]2NC(=O)[C@@H](Cc3ccccc3)NC(=O)[C@H](CC(=O)O)NC(=O)CNC(=O)[C@H](CCCNC(=N)N)NC2=O)C(=O)NCCCC[C@@H]2NC(=O)[C@@H](Cc3ccccc3)NC(=O)[C@H](CC(=O)O)NC(=O)CNC(=O)[C@H](CCCNC(=N)N)NC2=O)C(=O)NCCCC[C@@H]2NC(=O)[C@@H](Cc3ccccc3)NC(=O)[C@H](CC(=O)O)NC(=O)CNC(=O)[C@H](CCCNC(=N)N)NC2=O)NC(=O)[C@@H](Cc2ccccc2)NC(=O)[C@H](CC(=O)O)NC(=O)CNC1=O [indium-111 labelled] has a tissue uptake of 0.93 ± 0.13 %ID/g (female athymic nu/nu mice, bone; intravenous, 1 h).
O=C(O)CC[C@H](NC(=O)N[C@@H](CCCCNC(=O)CCCCC[C@H](NC(=O)CCS[C@@H]1O[C@H](CO)[C@H](O)[C@H](O)[C@H]1O)C(=O)NCCCC[C@@H](NC(=O)[C@@H](Cc1ccccc1)NC(=O)[C@@H](Cc1ccc(O)c(I)c1)NC(=O)CCC(C(=O)O)N1CCN(CC(=O)O)CCN(CC(=O)O)CCN(CC(=O)O)CC1)C(=O)O)C(=O)O)C(=O)O (stereo partly drawn) [gallium-68 labelled] gave a tumour uptake of 3.86 ± 1.32 %ID/g (CB-17 SCID mice; 1 h post injection, biodistribution).
For CC(C)[C@H](NC(=O)[C@@H](NC(=O)COCCOCCNC(=O)COCCOCCNC(=O)CN1CCN(CC(=O)O)CCN(CC(=O)O)CCN(CC(=O)O)CC1)[C@@H](C)O)C(=O)N[C@@H](CCCNC(=N)N)C(=O)N[C@H](C(=O)N[C@@H](CO)C(=O)N[C@@H](C)C(=O)N[C@@H](CC(=O)O)C(=O)O)[C@@H](C)O [copper-64 labelled], “tumour tracer uptake” read 7710 ± 1990 Bq/mL (PET; male nude mice, PC-3 xenograft; iv, 22 h).

For quick reference, copied from above:
CSCC[C@H](NC(=O)[C@H](CC(C)C)NC(=O)[C@H](Cc1c[nH]cn1)NC(=O)CNC(=O)[C@@H](NC(=O)[C@H](C)NC(=O)[C@H](Cc1c[nH]c2ccccc12)NC(=O)[C@H](CCC(N)=O)NC(=O)CCOCCOCCOCCOCCNC(=O)CN1CCN(CC(=O)O)CCN(CC(=O)O)CCN(CC(=O)O)CC1)C(C)C)C(N)=O [indium-111 labelled] has an intact peptide of 22.4% and 24.4% (radio-HPLC; Swiss nu/nu mice, blood; intravenous, 1 nmol, 5 min).
